Assay results of several laboratories.
A part holds a random share of what one study measured. Changes are numbered by the printed parent chain.

Set 1 — method: RNA Bind-n-Seq; molecule type: RNA; matrix: in vitro; concentration: not given; baseline: input RNA pool; direction: higher = stronger binding
Target: RING finger protein unkempt homolog, zinc fingers 1-6, GST-SBP tag (UNK, Homo sapiens, UniProt Q9C0B0, residues 30-357)
Setting: RNA with constant flanks, human and mouse sites, ends assumed
Shared flanks, not repeated: GGGAGUUCUACAGUCCGACGAUC … CAACAGAGGAUUGAGCAUCA
Target sequence (chain): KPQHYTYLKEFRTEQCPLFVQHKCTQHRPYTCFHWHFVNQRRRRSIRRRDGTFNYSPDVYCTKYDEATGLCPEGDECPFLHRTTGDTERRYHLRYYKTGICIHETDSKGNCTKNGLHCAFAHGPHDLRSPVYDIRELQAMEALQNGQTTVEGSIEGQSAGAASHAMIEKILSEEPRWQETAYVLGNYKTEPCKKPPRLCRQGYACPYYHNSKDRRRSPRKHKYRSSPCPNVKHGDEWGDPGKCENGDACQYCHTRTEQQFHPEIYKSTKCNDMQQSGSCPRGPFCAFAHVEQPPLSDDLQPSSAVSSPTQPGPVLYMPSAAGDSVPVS
Strand | bound/input enrichment [ratio]
AUCUUAAAUGAGGAUAACUCUGUGGUCCUCGGCAUCUCAUCCCGAGAAGGGGAGGAGGUUAUGUUUAAAACUCCAGUGUCCAUCACUGAACACCCCAAAAUCAAUGAGUGGCUCACUCUG | 0.265
AGCCUGCACAGCCGCGGCGGCAGCAGCAGUGAGAGUUCCAGGGUCUCCCUCCACUGCUGUAGUAACCCGGGUCCGGGGCCUCGGUGGUGCUCCGAUGCCCCUCACCCACCCCUGAAGAUC | 0.147
AAACAAGUAACUUGUGAGAAUUCUCCAAAGUCUCCUAAAGUGACUGGAACAGCUUCUAAAAAGAAACAAAUUACACCCUCUCAAUGCAAGGAACGGAAUUUACAAGAUCCUGUGCCAAAG | 0.222
UUCGACUUUCUUUGCCAGUACCAUAAACCAGCAAGCAAGAUUCCUGCUUUCCUAAAUGUAGUGGAUAUUGCUGGCCUUGUAAAAGGAGCUCACAAUGGGCAGGGCUUGGGGAAUGCCUUU | 0.171
GAUCCAAUGUUGCUGCAGUUUUUCAAGUCUCAAGGUUAUAGGGAUGGCCCAGGUAAUCCUCUUAGACAUAAUUAUGAAGGUACUUUAAGAGAUCUUCUACAGUUCUUCAAGCCUAGACAA | 0.807
GGCUUCGUGUCCUGCUUGUAAGAAAGAGAUUCAGUUGGUUAUUAAAGUUUUUAUAGCAUAGUUGAGUCAGUCACAGAGAAAUACUAGGAGGACCAGGUCAUUUAUCAAAAAAAUCAGUAU | 0.417
AAGUAUUUCUCUCUCAUUCCCACAGGAUUUGCAGAUGAAGACAUUAAUAAAAGGUUCCUAAGUGAUAUCCCAAGCUCUCAGAUUCUCCAGGAAGAGAUGACUUGGAUGAAGGAGAUUCUU | 0.0757
GUUUUUAACGAUGGCAGUUCCAGGGAACUAAUGAACCUCACUGGAACAAUCCCUGUGCCUUAUAGAGGUAAUACAUACAAUAUUCCAAUAUGCCUAUGGCUACUGGACACAUACCCAUAU | 0.148
GUCCGUGAACUGGUCUCAGGGGGCCGAAGUGUCCGGUUCUCUGAGGCAGAGCAGCGCUGUGUAUCUCGUGGCUUCACACCCGCCCAGUUCCAGGCGGCUCUGGAUGAAUAUGAGGAGCUC | 0.0666
UUGAGACCUCUGACACCAUAGAAAAUUUUAAUUGGGCUGCUACACUAAGAUAAUGUGCAAUUAUGAAGGCUCUUCCUUGGCUAGGUGUAGCUGCUUGCAUUUCCCAUCUGUUCUUGGCUU | 4.98
ACUGUGCAUGAACUGUUACCGGAACGACAUGAACAGAGAAGUGGUAAAGACAGACUCUGCCACCACAAGGAUCCCCGAGCUGGAUUUUGAGAUUCCAGCCUUCAGCCAGAAGGGAGCUCU | 0.205

Set 2 — method: protein-binding microarray; molecule type: double-stranded DNA, one strand shown; matrix: in vitro; concentration: 940 nM top; setting: 60-bp whole probe; with: salmon DNA 0.4 mg/ml; baseline: random background probes; direction: higher = stronger binding; shared flanks, not repeated: GCCTAGCAC … GTCTTGATTCGCTTGACGCTGCTG
Target: Interferon regulatory factor 5, full length, phosphomimetic (IRF5, Homo sapiens, UniProt Q13568-2, residues 1-514, S451D/S453D/S456D/S462D)
Strand | fitted relative affinity
GACGGTCTTCTACTGCTGACGTGCTAG | 0.23 z-score
GTCTTTGCAAAAGCTCCACCGTGCTAG | -0.371 z-score
TTAGATTTCAGTCTCGATTGGTGCTAG | 4.05 z-score
CTAATTTCCATTTTCTAAATGTGCTAG | 1.26 z-score
TTAGGTTTCGGGTATCAGTTAGTGCTA | 10.9 z-score
TTAAGTCTCCTACTGCTTTAGTGCTAG | 0.367 z-score
TTAGGGATCCTACTGCTTTAGTGCTAG | -0.34 z-score
ATTTAAGTTTCACTCTGCATGGTGCTA | 8.01 z-score
GACGGTTCCGGTTTCGGGATGTGCTAG | 5.31 z-score
GACGGACTGGACACTGGAGACGTGCTA | -0.661 z-score
TTAGATATCAGACTGCATTAGTGCTAG | -0.459 z-score
TTAGGTATCGGGTATCGGGTAGTGCTA | 6.42 z-score
ACAAATGGCCAACAAACATTGTGCTAG | -0.394 z-score
CATTTTCTGAATGTCCTCCTGTGCTAG | 0.609 z-score
AGAGTCACCCATCTCAGCAAGTGCTAG | -0.221 z-score
TTAGAACTGAGACTGGTTTAGTGCTAG | -0.225 z-score
GACGGTATCGGGTATGGGGACGTGCTA | 4.58 z-score
AGAAATTTTTTTTCTAACTAGTGCTAG | -0.125 z-score
TCATCTTTCCCTGCCCCATGGTGCTAG | 1.33 z-score
GACGGTATCATTCTCCTGACGTGCTAG | 3.04 z-score
TTAGCTATCGGTATCGGTTAGTGCTAG | 5.02 z-score
GACGGTTTCGGGACTGGGGGCGTGCTA | 8.93 z-score
GACGGTTGCGGTTCCGGGACGTGCTAG | 1.54 z-score
CTTGCTTTCCAATTCTCTTTGTGCTAG | 0.758 z-score
GACGGTCTTCTTCTCCTGACGTGCTAG | 0.777 z-score

Set 3 — method: RNA Bind-n-Seq; molecule type: RNA; matrix: in vitro; concentration: 20 nM; setting: 6-mer, flanks averaged, single round; with: 150 mM KCl; baseline: input library; direction: higher = stronger binding
Target: TAR DNA-binding protein 43, full length, His tag (TARDBP, Homo sapiens, UniProt Q13148, residues 1-414)
Strand | 6-mer enrichment (R)
UCAUAU | 0.559
UGCUAC | 0.635
CCGUUC | 0.581
GAUGUG | 1.54
CGUCUU | 0.585
CCUUCU | 0.586
AGCCGC | 0.832
GGAAGC | 1.54
AUCCAC | 0.588
CGGUGC | 1.3
GAUGCC | 0.834
AUACCG | 0.657
CCAGGG | 2.21
CUAGAG | 0.927

Set 4 — target: CRIPT, C-terminal peptide; method: DHFR complementation, deep sequencing; matrix: yeast; baseline: wild type; direction: higher = weaker binding
Setting: single substitutions, model-inferred values
Starting sequence: ERBIN, PDZ domain 1 (human); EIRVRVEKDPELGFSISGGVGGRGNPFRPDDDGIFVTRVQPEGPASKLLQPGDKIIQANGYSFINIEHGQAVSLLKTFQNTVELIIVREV; partner TKNYKQTSV
Change | binding free energy change [kcal/mol]
G33E | 0.797
S62T | 0.0797
K47M | 0.0916
A45K | 1.22
S15H | 0.535
G22Y | 0.535
G33P | 0.854
I2C | 0.191
G60C | 0.113

Set 5 — target: CCNE2, cyclin fold, Cln2 fusion (human); method: yeast growth competition, sequencing; matrix: yeast; setting: strong parent motif; baseline: not given; direction: higher = stronger binding
Starting sequence: CDKN1B docking peptide (human); PSACRNLFGPVDH
Change | normalised enrichment score
PAACRNLFGPVDH [S2A] | 1.1
PSACRNLFHPVDH [G9H] | 0.73
PSACRNLFGPVNH [D12N] | 1.75
PSACRNLFDPVDH [G9D] | 0.963
PSYCRNLFGPVDH [A3Y] | 2.24
PSVCRNLFGPVDH [A3V] | 3.96
FSACRNLFGPVDH [P1F] | 1.47
PSACRNLFGPVHH [D12H] | 0.709
PSACRNLFGPVEH [D12E] | 1.04
PSACRNLFGPVDW [H13W] | 4.28
PSACRNRFGPVDH [L7R] | 0.517
PPACRNLFGPVDH [S2P] | 0.905
PSACRALFGPVDH [N6A] | 1.04
PSMCRNLFGPVDH [A3M] | 0.881
PSACRNLFGPVDS [H13S] | 1.52
GSACRNLFGPVDH [P1G] | 1.34
PSACRLLFGPVDH [N6L] | 1.11
PSACRNLFGPGDH [V11G] | 1.3
PQACRNLFGPVDH [S2Q] | 0.65
PSANRNLFGPVDH [C4N] | 0.286
PSACRNLQGPVDH [F8Q] | 0.3
PSACRNLFGPQDH [V11Q] | 1.6
PSACRNEFGPVDH [L7E] | -0.0913
PSACRNLFGPLDH [V11L] | 1.46
PSACPNLFGPVDH [R5P] | -0.379

Set 6 — method: universal PBM; molecule type: double-stranded DNA, one strand shown; matrix: in vitro; concentration: not given; direction: higher = stronger binding
Target: Sal-like protein 4, full length isoform B (SALL4, Homo sapiens, UniProt Q9UJQ4-2, residues 1-616)
Setting: 8-mer, flanks averaged, mean of replicates
Strand | E-score
AAAAGCCA | 0.00471
AGAGTTGG | -0.0821
AAATGTGG | 0.149
AGAGAATA | 0.156
CTAATCCA | -0.021
TCAGAGCA | -0.23
CGACCAAA | 0.0051
CTCATGAC | -0.13
AAGCTACA | 0.108
CAACCAAG | -0.0737
CCAGACTA | -0.0896
ACCTCCCA | -0.194
CAACTATG | 0.166
CGCAGTCC | -0.278
AATCGTGA | 0.1
GGAGTGTA | -0.137

Set 7 — method: protein binding microarray; molecule type: double-stranded DNA, one strand shown; matrix: in vitro; concentration: not given; baseline: not given; direction: higher = stronger binding
Target: Histone acetyltransferase KAT6A, winged helix 2, GST fusion (KAT6A, Homo sapiens, UniProt Q92794, residues 85-181)
Setting: 8-mer, flanks averaged, mean of 2 arrays, mostly near background
Target sequence (chain): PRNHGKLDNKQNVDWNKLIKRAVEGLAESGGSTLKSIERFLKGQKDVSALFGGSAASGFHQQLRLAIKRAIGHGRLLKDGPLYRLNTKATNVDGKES
Strand | E-score
CACCAGTA | -0.104
CCAACCCA | -0.137
CGATACTC | -0.00325
CTCTTCGA | 0.0541
CGTGAGTC | -0.181
AGAATGCT | -0.0363
ACCCGATA | -0.153
ACACGGAA | 0.0512
CGGACCCA | 0.161
GTGAGCGA | 0.125
CGCGCGCA | 0.195
AGGGGTAC | -0.0535
CAGTTCTC | -0.13
CGTTACAC | -0.000875
CGTATCAC | 0.00364
CGAGCACC | 0.05
CAGGCTAG | -0.0938
AATCGTTA | -0.0602
CGGATCCA | 0.0643
CCCTGGCC | 0.0444
CCGCGTGA | 0.102
CAGAACTC | 0.0444
AGCTAGCT | 0.0286
ACTCGTCA | -0.124
AATTGCAG | 0.0473

Other studies, line by line
Molecule | target | test | system | conditions | scale | endpoint | result
PhoQ, residues 284 288 289 292 302 303 SASVAL | PhoP, residues 12 14 15 18 19 AQALL (Escherichia coli, UniProt P23836) | Sort-seq, refers to: YFP reporter | E. coli | PhoQ-PhoP variant library, with: 10 µM Mg2+ | baseline: high Mg2+ state, higher = stronger signaling | fold induction | 6.99

A few entries again (set 3):
Strand | 6-mer enrichment (R)
UCAUAU | 0.559
UGCUAC | 0.635
CCGUUC | 0.581
GAUGUG | 1.54
CGUCUU | 0.585
CCUUCU | 0.586
AGCCGC | 0.832
GGAAGC | 1.54
AUCCAC | 0.588
CGGUGC | 1.3
GAUGCC | 0.834
AUACCG | 0.657
CCAGGG | 2.21
CUAGAG | 0.927
